Experimental data gathered from unrelated publications.
Parts stem from different laboratories: compare values within a part only.

Study 1 — method: RNA Bind-n-Seq; form: RNA; medium: in vitro; tested at: 365 nM; relative to: no-protein control; direction: higher = stronger binding
Target: RNA binding protein fox-1 homolog 2, RRM domain, GST-SBP tag (RBFOX2, Homo sapiens, UniProt O43251-10, residues 100-194)
Setting: natural RNA segment, single round, ends assumed
Strand	RBNS enrichment (R)
GGGAGUUCUACAGUCCGACGAUCAGAACUCCAAUGCUGAAUGGAGAAGGGUAAUAGGUUGGUGCAGUGAAUGGGCUGGGGGUGGGGUGGCCUUCUCCAGGCCUGAGUGUUUUUGUGUCCAGCUCAGUAUCUGCUGGAAUUCUCGGGUGCCAA	4.85
GGGAGUUCUACAGUCCGACGAUCCACUUGGCUCCCAUAGCCCUCUUGAUGGAUCACGUAAAACUGAAAGGCAGCGGGGAGCAGACAAAGAUGAGGUCUACACUGUCCUUCAUGGGGAUUAAAGCUAUGGUUAUUGGAAUUCUCGGGUGCCAA	0.493
GGGAGUUCUACAGUCCGACGAUCGGCCCUCGACCUAACAUCUGUGGCAUCUGCGGGAAGAGCUUUGGACGAGGCUCGACCCUGAUCCAGCACCAGCGCAUCCAUACCGGCGAGAAGCCUUACAAAUGUGAGGUUGGAAUUCUCGGGUGCCAA	0.579

Study 2 — method: protein binding microarray; form: double-stranded DNA, one strand shown; medium: in vitro; tested at: not given; relative to: not given; direction: higher = stronger binding
Target: Histone acetyltransferase KAT6A, winged helix 1, GST fusion (KAT6A, Homo sapiens, UniProt Q92794, residues 1-85)
Setting: 8-mer, flanks averaged, mean of 2 arrays, mostly near background
Construct (chain): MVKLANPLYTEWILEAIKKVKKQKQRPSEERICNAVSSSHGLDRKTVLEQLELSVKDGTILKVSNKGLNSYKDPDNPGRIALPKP
Strand	E-score
ATATTAGA	-0.195
CGTTGTGA	-0.079
GGTTTGAA	-0.204
CGTCTCAG	-0.00522
CGACGCAG	0.302
AAGATCTA	-0.129

Study 3 — method: universal PBM; form: double-stranded DNA, one strand shown; medium: in vitro; tested at: 600 nM; direction: higher = stronger binding
Target: Sal-like protein 4, full length isoform A (SALL4, Homo sapiens, UniProt Q9UJQ4, residues 1-1053)
UniProt Q9UJQ4, sequence (whole entry, looked up): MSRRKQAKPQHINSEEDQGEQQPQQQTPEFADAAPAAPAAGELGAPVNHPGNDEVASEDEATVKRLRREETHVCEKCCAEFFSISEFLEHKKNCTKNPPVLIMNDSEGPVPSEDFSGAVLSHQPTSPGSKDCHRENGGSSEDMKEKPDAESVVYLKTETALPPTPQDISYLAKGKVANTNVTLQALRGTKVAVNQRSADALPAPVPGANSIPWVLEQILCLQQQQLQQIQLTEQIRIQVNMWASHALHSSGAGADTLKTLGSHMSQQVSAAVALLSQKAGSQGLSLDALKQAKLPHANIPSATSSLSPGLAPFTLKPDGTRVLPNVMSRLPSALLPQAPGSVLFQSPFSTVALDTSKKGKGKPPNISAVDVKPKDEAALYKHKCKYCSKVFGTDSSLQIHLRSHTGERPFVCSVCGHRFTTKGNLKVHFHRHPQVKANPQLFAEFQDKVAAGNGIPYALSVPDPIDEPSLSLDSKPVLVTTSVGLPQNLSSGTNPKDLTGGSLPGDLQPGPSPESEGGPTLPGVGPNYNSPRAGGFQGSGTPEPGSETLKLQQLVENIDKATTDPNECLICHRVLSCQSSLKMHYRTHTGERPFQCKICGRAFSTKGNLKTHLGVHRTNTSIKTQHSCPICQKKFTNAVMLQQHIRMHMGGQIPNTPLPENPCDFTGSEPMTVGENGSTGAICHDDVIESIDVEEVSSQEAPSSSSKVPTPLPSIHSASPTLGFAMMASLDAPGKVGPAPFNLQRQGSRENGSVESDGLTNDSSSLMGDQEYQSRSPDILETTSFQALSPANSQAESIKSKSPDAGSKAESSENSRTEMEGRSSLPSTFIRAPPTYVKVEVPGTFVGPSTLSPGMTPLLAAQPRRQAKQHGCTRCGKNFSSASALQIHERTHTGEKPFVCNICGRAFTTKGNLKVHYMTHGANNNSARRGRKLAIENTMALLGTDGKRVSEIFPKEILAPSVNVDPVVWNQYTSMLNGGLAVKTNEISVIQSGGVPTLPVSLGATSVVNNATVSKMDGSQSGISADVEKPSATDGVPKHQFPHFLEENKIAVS
Setting: 8-mer, flanks averaged, mean of replicates
Strand	E-score
ACGTAGAG	-0.127
GATTCCAA	-0.00354
CAACCTGG	-0.158
AATCCCCT	-0.146

Other studies, line by line
Molecule	target	test	test system	conditions	scale	quantity	value
PhoQ, residues 284 288 289 292 302 303 TASMAF	PhoP, residues 12 14 15 18 19 VHSCL (Escherichia coli, UniProt P23836)	Sort-seq, refers to: YFP reporter	E. coli	PhoQ-PhoP variant library, together with: 10 µM Mg2+	relative to: high Mg2+ state, higher = stronger signaling	fold induction	15.6

Some of these lines once more (study 3):
Strand	E-score
ACGTAGAG	-0.127
GATTCCAA	-0.00354
